Literature values as cited in several papers.
Protocols differ between the studies behind these lines. Values after ≈ are worked out from the molar mass of the structure shown.
UniProt Q9Y5S2, sequence (whole entry, looked up): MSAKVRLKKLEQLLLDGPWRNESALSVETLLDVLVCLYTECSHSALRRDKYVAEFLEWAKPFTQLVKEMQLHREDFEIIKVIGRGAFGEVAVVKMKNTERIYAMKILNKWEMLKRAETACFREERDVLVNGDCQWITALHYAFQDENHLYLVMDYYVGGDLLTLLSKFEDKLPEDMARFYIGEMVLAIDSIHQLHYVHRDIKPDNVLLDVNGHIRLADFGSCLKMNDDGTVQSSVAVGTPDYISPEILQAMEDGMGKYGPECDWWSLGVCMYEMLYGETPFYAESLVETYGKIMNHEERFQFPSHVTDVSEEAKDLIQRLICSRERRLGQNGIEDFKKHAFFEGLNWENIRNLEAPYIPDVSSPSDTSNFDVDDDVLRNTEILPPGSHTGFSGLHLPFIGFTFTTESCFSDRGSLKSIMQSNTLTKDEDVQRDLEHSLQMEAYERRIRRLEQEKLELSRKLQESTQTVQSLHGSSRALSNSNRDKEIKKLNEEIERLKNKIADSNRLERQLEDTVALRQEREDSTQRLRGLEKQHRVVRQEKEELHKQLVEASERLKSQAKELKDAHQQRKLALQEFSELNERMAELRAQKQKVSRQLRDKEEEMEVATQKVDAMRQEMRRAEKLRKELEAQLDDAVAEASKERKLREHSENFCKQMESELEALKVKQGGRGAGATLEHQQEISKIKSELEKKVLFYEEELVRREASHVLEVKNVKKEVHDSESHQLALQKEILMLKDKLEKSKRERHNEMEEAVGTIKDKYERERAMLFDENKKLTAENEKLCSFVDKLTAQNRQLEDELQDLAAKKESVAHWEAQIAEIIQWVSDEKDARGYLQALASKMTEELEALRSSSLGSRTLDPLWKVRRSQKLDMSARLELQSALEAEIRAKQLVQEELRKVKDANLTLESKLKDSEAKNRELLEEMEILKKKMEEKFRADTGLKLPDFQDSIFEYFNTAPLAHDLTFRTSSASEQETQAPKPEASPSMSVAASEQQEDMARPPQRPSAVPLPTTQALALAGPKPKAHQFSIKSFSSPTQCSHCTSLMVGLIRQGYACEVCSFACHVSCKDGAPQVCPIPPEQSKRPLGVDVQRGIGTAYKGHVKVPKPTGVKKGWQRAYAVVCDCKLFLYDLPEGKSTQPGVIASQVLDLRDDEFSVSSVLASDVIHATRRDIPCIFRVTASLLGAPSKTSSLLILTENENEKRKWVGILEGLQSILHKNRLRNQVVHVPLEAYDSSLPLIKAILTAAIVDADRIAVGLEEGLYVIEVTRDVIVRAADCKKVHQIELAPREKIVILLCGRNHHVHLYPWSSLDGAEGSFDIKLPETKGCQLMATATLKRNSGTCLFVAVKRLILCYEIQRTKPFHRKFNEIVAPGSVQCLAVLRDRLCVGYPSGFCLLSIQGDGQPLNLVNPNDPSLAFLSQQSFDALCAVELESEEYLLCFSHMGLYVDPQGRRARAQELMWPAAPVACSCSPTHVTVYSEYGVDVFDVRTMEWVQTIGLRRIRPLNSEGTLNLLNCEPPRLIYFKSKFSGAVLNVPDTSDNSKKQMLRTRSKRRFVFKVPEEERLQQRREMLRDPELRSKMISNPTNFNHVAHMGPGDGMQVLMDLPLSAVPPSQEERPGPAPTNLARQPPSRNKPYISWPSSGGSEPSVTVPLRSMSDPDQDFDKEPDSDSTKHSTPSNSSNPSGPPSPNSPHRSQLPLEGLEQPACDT
UniProt P18825, sequence (whole entry, looked up): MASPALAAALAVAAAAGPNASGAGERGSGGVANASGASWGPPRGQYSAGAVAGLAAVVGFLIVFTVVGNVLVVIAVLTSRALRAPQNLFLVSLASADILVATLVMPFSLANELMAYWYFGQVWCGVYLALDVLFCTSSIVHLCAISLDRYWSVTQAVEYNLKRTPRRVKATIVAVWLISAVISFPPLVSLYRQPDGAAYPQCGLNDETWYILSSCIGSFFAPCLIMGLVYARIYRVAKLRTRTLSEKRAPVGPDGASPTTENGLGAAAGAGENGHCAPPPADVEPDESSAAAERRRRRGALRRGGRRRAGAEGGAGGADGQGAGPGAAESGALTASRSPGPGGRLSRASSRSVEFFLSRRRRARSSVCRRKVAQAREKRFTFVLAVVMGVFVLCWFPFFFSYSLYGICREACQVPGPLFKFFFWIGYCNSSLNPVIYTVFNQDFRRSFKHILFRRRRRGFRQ
UniProt P06213, sequence (whole entry, looked up): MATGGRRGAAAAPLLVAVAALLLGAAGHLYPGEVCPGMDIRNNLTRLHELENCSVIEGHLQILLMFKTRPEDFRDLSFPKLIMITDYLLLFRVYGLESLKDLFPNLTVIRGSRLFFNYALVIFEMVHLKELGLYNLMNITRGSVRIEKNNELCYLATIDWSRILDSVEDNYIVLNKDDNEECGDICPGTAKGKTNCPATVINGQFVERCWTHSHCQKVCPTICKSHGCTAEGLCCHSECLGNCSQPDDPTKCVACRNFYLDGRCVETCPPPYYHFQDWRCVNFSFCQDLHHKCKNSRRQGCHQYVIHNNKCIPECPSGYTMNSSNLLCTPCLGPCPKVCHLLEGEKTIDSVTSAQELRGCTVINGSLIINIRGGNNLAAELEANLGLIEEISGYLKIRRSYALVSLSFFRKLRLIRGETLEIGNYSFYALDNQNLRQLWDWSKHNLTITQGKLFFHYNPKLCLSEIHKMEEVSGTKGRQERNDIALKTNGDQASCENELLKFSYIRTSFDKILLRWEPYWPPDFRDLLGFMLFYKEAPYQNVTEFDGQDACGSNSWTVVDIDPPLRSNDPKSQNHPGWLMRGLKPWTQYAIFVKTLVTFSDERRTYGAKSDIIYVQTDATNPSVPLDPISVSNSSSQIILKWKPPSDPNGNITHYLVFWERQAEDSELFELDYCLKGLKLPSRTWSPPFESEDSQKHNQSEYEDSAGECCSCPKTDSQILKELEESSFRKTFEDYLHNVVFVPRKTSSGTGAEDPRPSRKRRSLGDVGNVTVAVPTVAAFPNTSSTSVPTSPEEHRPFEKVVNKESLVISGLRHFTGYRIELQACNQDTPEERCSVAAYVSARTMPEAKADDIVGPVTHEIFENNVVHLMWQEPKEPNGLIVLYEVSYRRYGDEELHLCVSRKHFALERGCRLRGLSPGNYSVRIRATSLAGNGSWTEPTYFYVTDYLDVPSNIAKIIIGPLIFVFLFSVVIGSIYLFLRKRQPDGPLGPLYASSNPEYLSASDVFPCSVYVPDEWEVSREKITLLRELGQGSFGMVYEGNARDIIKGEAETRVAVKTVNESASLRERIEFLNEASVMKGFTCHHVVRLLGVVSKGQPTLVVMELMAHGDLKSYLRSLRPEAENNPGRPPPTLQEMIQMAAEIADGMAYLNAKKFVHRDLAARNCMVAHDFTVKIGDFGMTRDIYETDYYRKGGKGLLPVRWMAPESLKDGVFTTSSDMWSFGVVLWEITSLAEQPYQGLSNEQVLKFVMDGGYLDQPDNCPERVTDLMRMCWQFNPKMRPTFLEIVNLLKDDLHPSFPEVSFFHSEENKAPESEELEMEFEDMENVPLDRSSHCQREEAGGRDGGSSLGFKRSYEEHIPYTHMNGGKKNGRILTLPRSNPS
UniProt P06536, sequence (whole entry, looked up): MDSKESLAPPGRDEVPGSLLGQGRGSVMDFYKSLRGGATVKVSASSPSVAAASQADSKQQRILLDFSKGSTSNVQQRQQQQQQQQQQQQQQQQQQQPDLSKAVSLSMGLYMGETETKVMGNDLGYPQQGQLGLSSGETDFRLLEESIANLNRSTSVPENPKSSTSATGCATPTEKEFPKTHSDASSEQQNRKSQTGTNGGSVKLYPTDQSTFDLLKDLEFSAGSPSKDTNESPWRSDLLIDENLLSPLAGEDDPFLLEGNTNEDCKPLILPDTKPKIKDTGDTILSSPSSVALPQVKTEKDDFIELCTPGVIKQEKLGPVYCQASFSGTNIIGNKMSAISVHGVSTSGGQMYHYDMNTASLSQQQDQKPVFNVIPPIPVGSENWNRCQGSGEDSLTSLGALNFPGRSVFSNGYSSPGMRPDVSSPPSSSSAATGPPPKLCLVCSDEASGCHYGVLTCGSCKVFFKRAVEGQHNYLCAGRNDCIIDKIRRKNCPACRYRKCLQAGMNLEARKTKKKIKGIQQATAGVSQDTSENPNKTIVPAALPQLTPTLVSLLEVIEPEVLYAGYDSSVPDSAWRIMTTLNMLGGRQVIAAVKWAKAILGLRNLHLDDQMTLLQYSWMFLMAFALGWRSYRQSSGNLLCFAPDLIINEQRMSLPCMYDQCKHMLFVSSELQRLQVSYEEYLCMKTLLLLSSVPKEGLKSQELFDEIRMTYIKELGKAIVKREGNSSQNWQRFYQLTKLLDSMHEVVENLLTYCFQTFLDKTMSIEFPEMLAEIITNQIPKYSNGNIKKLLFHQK

C=C[C@]1(C)C[C@@H](OC(=O)CSCCN(CC)CC)[C@]2(C)[C@H](C)CC[C@]3(CCC(=O)[C@H]32)[C@@H](C)[C@@H]1O gave a required dose of 45 mg/kg (Mycoplasma gallisepticum; chickens; intramuscular, dose not given).
With Cc1[nH]c(C)c(-c2ccc(OCc3ccccc3C(F)(F)F)nc2)c(=O)c1Br the IC50 was 20 nM (Plasmodium falciparum; whole cell extended time; 3D7; 72 h).
CNC(C)C1CCC(N)C(OC2C(N)CC(N)C(OC3OCC(C)(O)C(NC)C3O)C2O)O1 (stereo not drawn) has an MIC of 1 µg/mL (≈ 2.09 µM) (Enterobacter cloacae; clinical isolate RKI-No_766/15).
CC1(C)NC(=O)N(c2ccc(F)c(C(C)(F)F)c2)C1=O: “worm burden reduction” 50% (Schistosoma mansoni; juvenile, infected mice; oral, 50 mg/kg single dose).
CCc1c(Cl)c(O)c(Cl)c(O)c1C(=O)O[C@H]1[C@H](O)[C@H](OC)[C@H](OC/C2=C\C=C\C[C@H](O)/C(C)=C/[C@H](CC)[C@@H](O[C@@H]3OC(C)(C)[C@@H](OC(=O)C(C)C)[C@H](O)[C@@H]3O)/C(C)=C/C(C)=C/C[C@@H]([C@@H](C)O)OC2=O)O[C@@H]1C has an MIC of over 32 µg/mL (Lactobacillus sp.; HM-102).
Cc1nc2ccccc2c(O)c1-c1ccc(Cl)cc1 gave an IC50 of 1000 nM (Plasmodium falciparum; whole cell extended time; 3D7; 72 h).
For Nc1cc(C(F)(F)F)c(-c2nc(N3CCOCC3)nc(N3CCOCC3)n2)cn1, the remaining activity was 89% (Serine/threonine-protein kinase MRCK beta (CDC42BPB, Homo sapiens, UniProt Q9Y5S2); enzyme activity; 10 µM; baseline: untreated).
With CCC(=O)O[C@]1(C(=O)SCF)[C@H](C)C[C@H]2[C@@H]3C[C@H](F)C4=CC(=O)C=C[C@]4(C)[C@@]3(F)[C@@H](O)C[C@@]21C the receptor occupancy was 81.1% (Glucocorticoid receptor (Nr3c1, Rattus norvegicus, UniProt P06536); rat, spleen; intravenous, 90 nmol/kg, 0.625 (unit not given)).
For Cc1cccc2nc(-c3ccc(-c4cccc(CNCCCN5CCCC5=O)c4)cc3)[nH]c12, the IC50 was 840 nM (Plasmodium falciparum; whole cell extended time; 3D7; 72 h).
O=C(C1CCCCC1)N1CC(=O)N2CCc3ccccc3[C@H]2C1 — result for “worm burden reduction”: 18% (Schistosoma mansoni; infected mice; 400 mg/kg; baseline: untreated).
[N-]=[N+]=N[C@]1(CO)O[C@@H](n2ccc(N)nc2=O)[C@@H](F)[C@@H]1O gave an EC50 of 0.014 nM (HIV-1; viral replication; Hut/CCR5).
Cc1cnc(N2CC3(CCOCC3)C2)c(C(=O)Nc2ccc(C(=O)N3CCc4cc(C(=O)Nc5c(C)cccc5F)sc4-c4ccccc43)cc2)c1 gave a median IC50 of 0.0202 µg/mL (respiratory syncytial virus; cytopathic effect; 5 subtype B clinical isolates).
For Cc1cc(NC(=O)c2cccc(NC(=O)/C=C/CN(C)C)c2)ccc1Nc1nccc(-c2cccnc2)n1, the remaining activity was 14% (Insulin receptor (INSR, Homo sapiens, UniProt P06213); enzyme activity, inhibitor; 1 µM; baseline: vehicle).
Cc1cc(O)c(-c2ccc(Sc3ccc(Cl)cc3)cc2)c(C)n1 has an IC50 of 970 nM (Plasmodium falciparum; whole cell extended time; 3D7; 72 h).
CNCc1cc(-c2ccccc2F)n(S(=O)(=O)c2cccnc2)c1 gave an AUC(0-inf) of 411 ng·h/mL (human; 40 mg, single dose, fed, CYP3A victim drug).
CC1(C)S[C@@H]2[C@H](NC(=O)[C@H](N)c3ccccc3)C(=O)N2[C@H]1C(=O)O gave an MIC of over 16 µg/mL (Escherichia coli; clinical isolate RKI-No_513/16).
With COc1ccccc1Oc1cccc(CN2CCC(NC(=O)C3CC(=O)Nc4ccccc43)CC2)c1 (stereo not drawn) the EC50 was 37 nM (human CCR8 F112A mutant (TM3); IP accumulation, agonist).
With CCC(C)(C)C1CCc2[nH]c3ccccc3c(=O)c2C1 (stereo not drawn) the IC50 was 380 nM (Plasmodium falciparum; whole cell extended time; 3D7; 72 h).
N#CSCCOc1ccc(Oc2ccccc2)cc1 has an IC50 of 12000 nM (Trypanosoma cruzi; parasite growth; rat L6E9 myoblasts, amastigote).
N#Cc1cc(NC(=O)[C@H]2c3ccccc3C(=O)N(CC(F)(F)F)[C@@H]2c2cccnc2)ccc1F — result for “AUC at ED90”: 1.5 µM·h (Plasmodium falciparum; 3D7 0087/N9, NSG mouse; dose not given).
For CNC(=O)[C@@]12C[C@@H]1[C@@H](n1cnc3c(NCc4cccc(Cl)c4)nc(C#Cc4ccc(F)c(F)c4)nc31)[C@H](O)[C@@H]2O, the Ki was 2000 nM (Alpha-2C adrenergic receptor (ADRA2C, Homo sapiens, UniProt P18825); radioligand binding).
The EC50 of COc1ccccc1Oc1cccc(CN2CCC(NC(=O)C(CCN3CCCC3)c3ccccc3)CC2)c1 (stereo not drawn) is reported as 43 nM (human CCR8 F46A mutant (TM1); IP accumulation, agonist).
C[C@H]1COCCN1c1nc(-c2cnc(N)cc2C(F)F)nc(N2CCOCC2)n1 has a GI50 of 347 nM (SW948).
With Oc1ccc(-c2nc(-c3ccc(OC4CCCC4)cc3)no2)cc1 the MIC was 0.5 µg/mL (≈ 1.55 µM) (Corynebacterium sp.; HM-784).

Some of these lines once more:
O=C(C1CCCCC1)N1CC(=O)N2CCc3ccccc3[C@H]2C1 — result for “worm burden reduction”: 18% (Schistosoma mansoni; infected mice; 400 mg/kg; baseline: untreated).
[N-]=[N+]=N[C@]1(CO)O[C@@H](n2ccc(N)nc2=O)[C@@H](F)[C@@H]1O gave an EC50 of 0.014 nM (HIV-1; viral replication; Hut/CCR5).
